Published values gathered from unrelated publications.
Each line is one published result; not all experiments were run side by side. ± gives the spread as reported.

SMILES | test | system | setting | tissue uptake
C[C@]12CC[C@H](OCC[18F])C[C@H]1CC[C@@H]1[C@@H]2CC[C@]2(C)[C@@H](c3ccc(=O)oc3)CC[C@]12O | micro-PET | BALB/c nude mice, SMMC-7721 xenograft, liver | intravenous, 7.4 MBq, 60 min | 15.8 ± 2.75 %ID/g
CCCC[C@H](NC(=O)CCOCCOCCNC(=O)CN1CCN(CC(=O)O)CCN(CC(=O)O)CCN(CC(=O)O)CC1)C(=O)N[C@H]1CC(=O)NCCCC[C@@H](C(N)=O)NC(=O)[C@H](Cc2c[nH]c3ccccc23)NC(=O)[C@H](CCCNC(=N)N)NC(=O)[C@@H](Cc2ccccc2)NC(=O)[C@H](Cc2c[nH]cn2)NC1=O [gallium-68 labelled] |  | C57BL/6J mice male B16-F10 tumour, liver | 1 h post injection, unblocked | 0.6 ± 0.1 %ID/g
N=C(N)NCc1ccc(C(=O)NCCCC[C@H](NC(=O)CCCCCCC(=O)NCCCC[C@H](NC(=O)N[C@@H](CCC(=O)O)C(=O)O)C(=O)O)C(=O)O)cc1[211At] |  | SCID mouse, PC-3 xenografts, brain | 21 h | 0.12 ± 0.03 %ID/g
COc1cc2ncnc(Oc3cccc(N[11C](=O)Nc4cc(C(C)(C)C(F)(F)F)on4)c3)c2cc1OC |  | Balb/c nude mouse, female, A375 melanoma xenograft, tumor | 6.6 MBq, 30 min | 1.79 ± 0.07 %ID/g
O=C(c1ccc(F)cc1)C1CCN(C2Cc3c(cccc3OCC[18F])CC2O)CC1 (single isomer, unassigned; (-)) |  | Sprague-Dawley rat, male, kidney | intravenous, dose not given, 5 min | 2.36 ± 0.52 %ID/g
COc1cc2ccnc(Cc3ccc(O[11CH3])c(OC)c3)c2cc1OC |  | Sprague-Dawley rat, brain | intravenous, 30 min | 0.041 ± 0.007 %ID/g
COc1cc(C(=O)NCCOCCOCCOCCNC(=O)c2ccc([18F])nc2)ccc1NC(=O)C1NC(CC(C)(C)C)C(C#N)(c2ccc(Cl)cc2F)C1c1cccc(Cl)c1F (stereo not shown) |  | athymic male mice, SJSA-1 xenograft, small intestine | 1 h | 2.85 ± 0.24 %ID/g
N=C(N)NCc1ccc(C(=O)NCCCC[C@H](NC(=O)N[C@@H](CCC(=O)O)C(=O)O)C(=O)O)cc1[131I] |  | SCID mouse, PC-3 xenografts, blood | 21 h | 0.01 %ID/g
CN[C@](C)(C[18F])C(=O)O |  | SCID mouse DU-145 xenograft, brain | 30 min, post injection | 0.3 ± 0.03 %ID/g
C=Cc1cc(O)cc2nc(-c3ccc(O)c([76Br])c3)oc12 |  | female C57BL/6 mouse, liver | 6 h, high dose | 0.14 ± 0.02 %ID/g
CCNc1cc2[o+]c3cc(NCC)c(C)cc3c(-c3ccccc3C(=O)OCCOCC[18F])c2cc1C |  | rat, blood | 120 min | 0.06 ± 0.01 %ID/g
O=C(O)CC[C@H](NC(=O)O[C@@H](CCCCNC(=O)c1ccc([18F])cc1)C(=O)O)C(=O)O |  | mouse, PC-3 PIP/flu xenografts, large intestine | 60 min | 0.62 ± 0.27 %ID/g
N=C(N)NCc1ccc(C(=O)NCCCC[C@H](NC(=O)N[C@@H](CCC(=O)O)C(=O)O)C(=O)O)cc1[211At] |  | SCID mouse, PC-3 xenografts, muscle | 14 h | 0.1 ± 0.02 %ID/g

For quick reference, copied from above:
SMILES | test | system | setting | tissue uptake
COc1cc2ncnc(Oc3cccc(N[11C](=O)Nc4cc(C(C)(C)C(F)(F)F)on4)c3)c2cc1OC |  | Balb/c nude mouse, female, A375 melanoma xenograft, tumor | 6.6 MBq, 30 min | 1.79 ± 0.07 %ID/g
